# Experimental data pooled from the literature.
# Compare with care: the assays were run in different laboratories.
# Route: intravenous
system,conditions,clearance,Structure (SMILES)
"male Sprague-Dawley rat, plasma",0.9 mg/kg,7.2 mL/min/kg,Cc1cc(N2CCC(C#N)(C3(C)CC3)C2=O)cc(C(=O)NCc2cc(F)cc(-c3cnn(C)c3)c2)n1 (racemic)
"male Sprague-Dawley rat, plasma",0.5 mg/kg,15.2 mL/min/kg,Cc1ncnc(C)c1-c1ccc(C(=O)N2CC[C@H](C(=O)Nc3cc(F)c(F)c(F)c3)C2)[nH]1
"male Sprague-Dawley rat, plasma",1 mg/kg,5 mL/min/kg,COc1ccc(COc2c(OC)ccc3c2C[C@@H](C(=O)O)N(c2nc4ccc(F)cc4o2)C3)cn1
"male Sprague-Dawley rat, plasma",5 mg/kg,0.167 mL/min/kg,COc1cc2ncnc(Oc3ccc(Nc4nccc5[nH]cc(-c6ccc(F)cc6)c(=O)c45)cc3F)c2cc1OC
"rat, plasma",5 mg/kg,292 mL/min/kg,N[C@@H](COc1ccccc1C(F)(F)F)c1ccccc1
"male Sprague-Dawley rat, plasma",20 mg/kg,123 mL/min/kg,CC(C)(C)C(=O)Nc1ccc2[nH]c(CN3CCC(N(CCCN4CCOCC4)CC4OC(n5cnc6c(N)ncnc65)C(O)C4O)CC3)nc2c1 (stereo not shown)
"male Sprague-Dawley rat, plasma","1 mg/kg, single dose",79 mL/min/kg,Cc1ccc(OCC(=O)N(Cc2cccs2)c2ccn[nH]2)cc1
"Sprague-Dawley rat, plasma",10 mg/kg,12.5 mL/min,CC12CC3CC(C)(C1)CC(NC(=O)Nc1ccc(C(=O)N4CCCC(C(N)=O)C4)cc1)(C3)C2 (stereo not shown)
"male Sprague-Dawley rat, plasma",1 mg/kg,2.1 mL/min/kg,COc1ccc2c(c1OCc1ccccc1)C[C@@H](C(=O)O)N(c1nc3ccc(F)cc3o1)C2
"Sprague-Dawley rat, plasma",1 mg/kg,59.2 mL/min/kg,Cn1cc(-c2cc(N3CCCCS3(=O)=O)ccc2N[C@H]2CC[C@H](C)CC2)c2cc[nH]c2c1=O (stereo in doubt)
"male Sprague-Dawley rat, plasma",2 mg/kg,127 mL/min/kg,CSCOC1C(=O)C2(C)C(OCSC)CC3OCC3(OC(C)=O)C2C(OC(=O)c2ccccc2)C2(O)CC(OC(=O)C(O)C(C=C(C)C)NC(=O)OC(C)(C)C)C(C)=C1C2(C)C (stereo not shown)
"Sprague-Dawley rat, blood",2 mg/kg,13.8 mL/min/kg,COC(=O)c1ccc2c(c1)NC(=O)/C2=C(\Nc1ccc2c(c1)CCN2C(=O)CN1CCOCC1)c1ccccc1
"rat, plasma","10 mg/kg, single dose",97.1 mL/min/kg,COc1ccc(S(=O)(=O)N2CCc3ccccc3C2)cc1N1CCN(C(=O)c2ccc(F)cc2C(F)(F)F)CC1

# For quick reference, copied from above:
system,conditions,clearance,Structure (SMILES)
"Sprague-Dawley rat, blood",2 mg/kg,13.8 mL/min/kg,COC(=O)c1ccc2c(c1)NC(=O)/C2=C(\Nc1ccc2c(c1)CCN2C(=O)CN1CCOCC1)c1ccccc1
